Experimental data gathered from unrelated publications.
Numbered parts are unrelated; each lists some results of a single study.

Block 1 — method: aptamer microarray, sandwich; molecule type: DNA with 2'F-ANA; matrix: in vitro; tested at: 200 nM; together with: Cy3 exosite-II aptamer, 400 nM; reading: higher = stronger binding; sequence: GGTTGGTGTGGTTGG
Target: Prothrombin, mature alpha-thrombin (F2, Homo sapiens, UniProt P00734)
Notes: whole 15-mer aptamer, many near background
Modification | mean fluorescence intensity
2'F-ANA at 3 4 5 9 10 11 13 14 | 70.6 a.u.
2'F-ANA at 1 3 5 7 9 11 14 15 | 43.9 a.u.
2'F-ANA at 3 4 5 8 9 10 15 | 49.3 a.u.
2'F-ANA at 2 4 6 8 9 11 12 14 | 127 a.u.
2'F-ANA at 8 10 11 12 14 | 103 a.u.
2'F-ANA at 1 4 5 9 10 | 48.1 a.u.
2'F-ANA at 2 5 6 7 8 9 11 12 14 15 | 51.2 a.u.
2'F-ANA at 2 4 7 8 10 11 12 14 | 147 a.u.
2'F-ANA at 3 4 5 6 10 12 | 56.7 a.u.
2'F-ANA at 6 10 12 13 15 | 186 a.u.
2'F-ANA at 1 3 5 8 9 11 12 13 14 15 | 57.3 a.u.
2'F-ANA at 1 3 6 8 9 11 12 13 14 15 | 122 a.u.
2'F-ANA at 1 4 6 7 8 14 | 70.8 a.u.
2'F-ANA at 5 6 9 10 12 15 | 55.2 a.u.
2'F-ANA at 2 3 4 7 8 9 10 11 13 15 | 221 a.u.
2'F-ANA at 2 3 4 7 8 9 10 11 14 | 253 a.u.
2'F-ANA at 2 5 7 9 12 13 15 | 91.7 a.u.
2'F-ANA at 1 3 5 6 9 10 11 12 13 | 76.5 a.u.
2'F-ANA at 1 3 6 8 12 13 15 | 471 a.u.
2'F-ANA at 1 2 8 9 10 12 13 14 | 50.8 a.u.
2'F-ANA at 1 5 6 9 10 11 12 15 | 128 a.u.
2'F-ANA at 4 7 9 12 13 15 | 331 a.u.
2'F-ANA at 2 5 6 7 9 10 11 12 13 15 | 48.7 a.u.
2'F-ANA at 3 4 7 8 9 10 11 14 | 198 a.u.
2'F-ANA at 1 2 3 4 6 7 8 10 13 14 | 52.7 a.u.

Block 2 — method: universal PBM; molecule type: double-stranded DNA, one strand shown; matrix: in vitro; tested at: not given; reading: higher = stronger binding
Target: Sal-like protein 4, full length isoform B (SALL4, Homo sapiens, UniProt Q9UJQ4-2, residues 1-616)
Notes: 8-mer, flanks averaged, mean of replicates
Sequence | E-score
CTGTCAGC | -0.162
ACGGAACA | -0.0663
CCAGAGAG | -0.243
GGGAGGAA | -0.108
GGCGTCCA | -0.158
AGGGCCAA | -0.147
ATGTTTGG | 0.207
CAGCCTGA | -0.107
AGAAGTAG | -0.0266
AAGTCTTA | 0.0322
GGGCATTA | -0.12
CTGGGTGA | -0.194
AAAATAAC | 0.296
TAATCCTA | 0.16
TACCCTCA | -0.061
GGCGAAAA | 0.0599

Block 3 — method: RNA Bind-n-Seq; molecule type: RNA; matrix: in vitro; tested at: 200 nM; notes: whole 134-nt RNA, ends assumed; together with: 150 mM LiCl; baseline: input library; reading: higher = stronger binding; library: 7-deaza-guanosine replaces G
Target: Ras GTPase-activating protein-binding protein 1, full length (G3BP1, Homo sapiens, UniProt Q13283)
Chain of UniProt Q13283 (whole entry, looked up): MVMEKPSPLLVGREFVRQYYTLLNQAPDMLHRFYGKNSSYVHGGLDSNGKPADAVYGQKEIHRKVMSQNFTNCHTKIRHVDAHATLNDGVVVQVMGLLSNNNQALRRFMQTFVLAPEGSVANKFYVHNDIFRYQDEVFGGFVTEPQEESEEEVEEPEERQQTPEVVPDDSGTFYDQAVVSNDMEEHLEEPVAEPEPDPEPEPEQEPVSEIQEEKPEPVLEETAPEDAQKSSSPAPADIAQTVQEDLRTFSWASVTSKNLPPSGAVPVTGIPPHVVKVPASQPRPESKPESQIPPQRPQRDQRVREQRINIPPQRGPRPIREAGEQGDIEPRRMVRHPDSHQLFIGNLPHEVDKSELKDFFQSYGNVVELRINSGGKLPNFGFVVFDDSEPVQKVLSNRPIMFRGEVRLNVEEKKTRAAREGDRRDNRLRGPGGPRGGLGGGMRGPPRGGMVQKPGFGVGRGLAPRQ
Shared flanks, not repeated: GGGAGUUCUACAGUCCGACGAUC … UGGAAUUCUCGGGUGUCAAGG
Sequence | log2 enrichment
UAACUUUAGAGGAGGAUCUGAUGGAUAUGGCAGUGGACGUGGACUUGGGGAUGGCUAUAAUGGGUAUGGAGGAGGACCUGGAGGUGGCAA | -0.731
UGGGAAGUGGAUUUUGUUUAUUUUUUUAGCUCAUUUCCAGGGGUGGGAAUUUUUUUUUAAUAUGUGUCAUGAAUAAAGUUGUUUUUGAAA | -0.517
AAGUCCUGUGCUACACAUCGUAUGUACCGAAUCGGGAGGGUUUGGGAAAAAAAGGGAAAGUAUUAUGUUACGCCGUUCGGAUCUGCACUU | -0.584
UGGCCCUGGUGGCAUGGGGGGAGGAAGAGGUGGCCUCAUGGAUCGUGGUGGUCCCGGUGGAAUGUUCAGAGGUGGCCGUGGUGGAGACAG | 0.478
UCAAGUCCUGUGCUACACAUCGUAUGUACCGAAUCGGGCCCGGGCCCGGGCCCGGAAAGUAUUAUGUUACGCCGUUCGGAUCUGCACUUC | 0.0647
AAGUCCUGUGCUACACAUCGUAUGUACCGAAUCGGGGAAAAAGGGGAGGGGAGGGGAAAGUAUUAUGUUACGCCGUUCGGAUCUGCACUU | 0.548
UCGGACGCCGCCAACCUGCACGAGUUCCACGCGGACCUGCGCUCAUGCUUUGCACCCCAGCACAUGGCCAUGCUGUGUAGCCCCAUCCUC | 0.215
ACCAUGCAGGUGGGCAUCUUUGGGAAGUGGGGCAAGGGGGAAAUAGGGAGGGGGGUAACACUUUGGGAACAGGUGGUCCCAGGUCGUUUC | 0.425
CUCAAGUCCUGUGCUACACAUCGUAUGUACCGAAUCGGAAAGGUUUUUGGUGGAAAGUAUUAUGUUACGCCGUUCGGAUCUGCACUUCCA | 0.245
AGUCCUGUGCUACACAUCGUAUGUACCGAAUCAAAUUUAAACCCCCAAACCCCCAAAAAAGUAUUAUGUUACGCCGUUCGGAUCUGCACU | 0.897
UGGGAGGUGGAUUUUGUUUAUUUUUUUAGCUCAUUUCCAGGGGUGGGAAUUUUUUUUUAAUAUGUGUCAUGAAUAAAGUUGCUUUUGAAA | -0.544

Block 4 — method: RNA Bind-n-Seq; molecule type: RNA; matrix: in vitro; tested at: 365 nM; baseline: no-protein control; reading: higher = stronger binding
Target: RNA binding protein fox-1 homolog 2, RRM domain, GST-SBP tag (RBFOX2, Homo sapiens, UniProt O43251-10, residues 100-194)
Notes: natural RNA segment, single round, ends assumed
Shared flanks, not repeated: GGGAGUUCUACAGUCCGACGAUC … UGGAAUUCUCGGGUGCCAA
Target sequence (chain): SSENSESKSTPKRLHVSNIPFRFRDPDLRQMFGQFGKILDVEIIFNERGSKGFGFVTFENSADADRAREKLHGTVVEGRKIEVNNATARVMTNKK
Sequence | RBNS enrichment (R)
UCAGUCCAGUUUCCAUGACGUACCCCCUUCAGAAGUUUCUGACAUUGGUUUGAGGUUUUCUGACACUAAUUAAAAGAAAAAUUAGAUCAGGGUGUGGUAGCAAAUGCCUA | 0.337
UCUCUGCCCUAGAGGUGCUACCUGUGACAGGGACCAAGUGCAUGUGUGUUCAGUGUUUGACUCCAAAACAGCUGCCUGCUCCCUCAGUGUGCUCGGUGGGGAGAGGGCCG | 3.41
UCCCAGCGUGACUUAUUUGGGGAUUCCUCAGGGCCUACUGGAAUGUGACUGCCCACUGCCCAGCUGCCUCGGGUACAAGUCCUGGCCCUAUGUCCCAGCUGUCAGGGGCU | 0.712
GGAUGCCCACCCCUGCUGCCGCCACUGGCUGUGCCUCCCCCGCCACCUGUGUGUUCUUUUGAUACAUUUAUCUUCUGUUUUUCUCAAAUAAAGUUCAAAGCAACCACCUG | 0.343
GCCCCCAAUCCAGGAGUACCCCCCUUGCCACCAAGUCUCCUUUAUUGCCUGCCUCUGCUGUGAAUUAACUUGUUCUGUGUAUUAAACUGGGCCUGACCCCUCUGCCCACA | 1.37
GUGUGGCAGCAUUGUCCCACUUCAGAUGCCAGGAGUGGGCUCAUCCUAGAGGAGCGGAGUUUUCCGAGAGGACCAUCUCCUGGUUUCCUGAAGGAGGUGGGUGGAAACGG | 0.602
UCAAAAUCUCCUGUGUUUUUUAAGCUUUUUCAAAAUAGAUGUCUGAGGAAAACCAGCAGAAUAUUAACCAGUGUGGAGCCAGUUGUUGGGAGCACACACUUCCAUUAUGC | 0.364
CAUCAAAAUGUUACUGCCGGUUGAAAGCCAUGAUCAUGUGCAAAGGAUGUGGAGCUUUCUGCCAUGAUGAUUGCAUUGGCCCCUCCAAACUCUGUGUCUCCUGCCUUGUU | 2.24
UGGGACUGUUAUUCCCAGGGCUCCAGCAAGCCACUCCCUGGGUGACCUCGGGCAAGGCCCUCUCUGGGCCUCGGUGGCCUGUGGAUAAGGAGGGGAGACCCCCACUCGCC | 0.323
GGCCAGGCUGGACAAAUUCCUGAGGCACAACUUGGCUUCAGUUCAGAUUUCAAGCUGUGUUGGUGUUGGGACCAGCAGAAGGCAAACGUCCAGCCAACACACAGGACUGU | 0.387
AAACCCUCAGGCACCAGCACAGGGCUCUGGGUGACUCAGUAAAACUAACGUUUGUCUCUGACAAGAUCAGCUGUAGGCUCACCGGCCAGAGAAGACCACUGUGAGCAUUU | 0.356
UGAGGGCUCCAAGGCCGGAAGUCCUCCCUUCCUCCCUGUCUGCUCUCAUGCUCUCCGCCCUGUUCUAUCUGGCACUUCCCAGGCACAGAGGCCCCUUCAGGUUCCUGGGU | 0.313

Excerpt of the above (block 3):
Sequence | log2 enrichment
ACCAUGCAGGUGGGCAUCUUUGGGAAGUGGGGCAAGGGGGAAAUAGGGAGGGGGGUAACACUUUGGGAACAGGUGGUCCCAGGUCGUUUC | 0.425
UCGGACGCCGCCAACCUGCACGAGUUCCACGCGGACCUGCGCUCAUGCUUUGCACCCCAGCACAUGGCCAUGCUGUGUAGCCCCAUCCUC | 0.215
UGGGAAGUGGAUUUUGUUUAUUUUUUUAGCUCAUUUCCAGGGGUGGGAAUUUUUUUUUAAUAUGUGUCAUGAAUAAAGUUGUUUUUGAAA | -0.517
UAACUUUAGAGGAGGAUCUGAUGGAUAUGGCAGUGGACGUGGACUUGGGGAUGGCUAUAAUGGGUAUGGAGGAGGACCUGGAGGUGGCAA | -0.731
UCAAGUCCUGUGCUACACAUCGUAUGUACCGAAUCGGGCCCGGGCCCGGGCCCGGAAAGUAUUAUGUUACGCCGUUCGGAUCUGCACUUC | 0.0647
UGGGAGGUGGAUUUUGUUUAUUUUUUUAGCUCAUUUCCAGGGGUGGGAAUUUUUUUUUAAUAUGUGUCAUGAAUAAAGUUGCUUUUGAAA | -0.544
